Measurements of several laboratories.
Parts stem from different laboratories: compare values within a part only.

Set 1 — method: protein binding microarray; form: double-stranded DNA, one strand shown; medium: in vitro; tested at: not given; baseline: not given; reading: higher = stronger binding; measurement: E-score
Target: Histone acetyltransferase KAT6A, both winged helices, GST fusion (KAT6A, Homo sapiens, UniProt Q92794, residues 1-181)
Setting: 8-mer, flanks averaged, mean of 2 arrays, mostly near background
Construct (chain): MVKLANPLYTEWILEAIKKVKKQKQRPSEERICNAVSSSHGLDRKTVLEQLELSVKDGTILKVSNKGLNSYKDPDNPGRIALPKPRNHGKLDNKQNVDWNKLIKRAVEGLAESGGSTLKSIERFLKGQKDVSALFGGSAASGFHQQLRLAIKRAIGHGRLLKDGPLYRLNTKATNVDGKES
Oligonucleotide = CCAGTATC; result = -0.176
Oligonucleotide = ACTACGTA; result = 0.0321
Oligonucleotide = AGTAGTGG; result = -0.118
Oligonucleotide = GCAAGTGC; result = -0.017
Oligonucleotide = CCTTTGCA; result = -0.0906
Oligonucleotide = AGTTATAA; result = -0.0999
Oligonucleotide = TGCGACCA; result = 0.0193

Set 2 — method: RNA Bind-n-Seq; form: RNA; medium: in vitro; tested at: not given; setting: RNA with constant flanks, ends assumed; baseline: input RNA pool; reading: higher = stronger binding; measurement: bound/input enrichment
Target: RING finger protein unkempt homolog, zinc fingers 1-6, GST-SBP tag (UNK, Homo sapiens, UniProt Q9C0B0, residues 30-357)
Sequence of UniProt Q9C0B0 (30-357, looked up): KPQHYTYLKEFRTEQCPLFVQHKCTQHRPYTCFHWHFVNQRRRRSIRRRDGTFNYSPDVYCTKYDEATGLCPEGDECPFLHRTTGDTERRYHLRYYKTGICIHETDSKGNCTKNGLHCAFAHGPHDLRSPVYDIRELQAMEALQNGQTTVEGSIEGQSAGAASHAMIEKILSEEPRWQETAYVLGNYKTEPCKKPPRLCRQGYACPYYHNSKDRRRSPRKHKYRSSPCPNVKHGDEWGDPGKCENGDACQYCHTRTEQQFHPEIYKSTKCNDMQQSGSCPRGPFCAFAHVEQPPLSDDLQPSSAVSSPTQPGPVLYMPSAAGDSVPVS
Oligonucleotide = GGGAGUUCUACAGUCCGACGAUCUGUUUUGGCUAUUUACAACACUAGUUCUGCUCUUCCAUAAAAAUCGCAUUUUAUCUGUAUCCGCCGAUCUUCACCAAACUCUUAAGCAAUACAAUAUUCCCUCUAAUGCUUUACACACGUCAACAGAGGAUUGAGCAUCA; result = 1.08 ratio
Oligonucleotide = GGGAGUUCUACAGUCCGACGAUCUCUGGUGGUGAAUCCUCCAUAGUCUGGAGAUCUCAGCCCUGCUGAGCUGAUGAUGCUGACUACCGGAGAUGUUAUUAAACAACUGAUUGAAGCCCACGAGCAGGGGAAAGACAUCGAUCUCAACAGAGGAUUGAGCAUCA; result = 0.233 ratio
Oligonucleotide = GGGAGUUCUACAGUCCGACGAUCCAAGACCCAACCAUUUCUUCCACCUGCUUGAUUGUGCCAGUGUUUGCUCAGGCCUCUUUCUCCGUGUUGCUUUCAAAUCCUUCUCUUUCCUGGGUUGGGAAGGCCAGGCAGGGACAGAGCCAACAGAGGAUUGAGCAUCA; result = 0.378 ratio
Oligonucleotide = GGGAGUUCUACAGUCCGACGAUCACCACUGCACUUUCCAGACAAGCAGGCCAAGAAACUCUUUCAGUCCUCAAGUUCACCAAGUCUCCGCAUACAGUGUGUGCCCAGAACUACUGGAAACUGAAUGCAUUUAGCAUAUUUUGACAACAGAGGAUUGAGCAUCA; result = 0.426 ratio

Set 3 — method: protein-binding microarray; form: double-stranded DNA, one strand shown; medium: in vitro; tested at: 0.8 µM; setting: whole 60-bp probe, no competitor; reading: higher = stronger binding; measurement: fluorescence intensity
Target: Centromere-binding protein 1, full length, N-terminal tag (CBF1, Saccharomyces cerevisiae, UniProt P17106, residues 1-351)
Sequence of UniProt P17106 (whole entry, looked up): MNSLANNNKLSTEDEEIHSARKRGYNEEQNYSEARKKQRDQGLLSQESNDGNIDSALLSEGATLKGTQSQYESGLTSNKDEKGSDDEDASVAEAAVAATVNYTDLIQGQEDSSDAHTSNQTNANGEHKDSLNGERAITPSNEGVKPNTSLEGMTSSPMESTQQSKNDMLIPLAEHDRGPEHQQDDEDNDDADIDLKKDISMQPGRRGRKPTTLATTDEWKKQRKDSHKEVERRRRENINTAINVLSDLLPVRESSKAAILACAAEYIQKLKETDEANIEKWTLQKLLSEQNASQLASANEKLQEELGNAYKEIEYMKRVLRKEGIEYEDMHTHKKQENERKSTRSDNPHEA
Oligonucleotide = CTATCTAGCACAACCCACGTAAGAACCTTAATTTTCGTCTTGATTCGCTTGACGCTGCTG; result = 534 a.u.
Oligonucleotide = GAATCCTTGTACCAGCACATGGCCGAGCTTGAATAGGTCTTGATTCGCTTGACGCTGCTG; result = 572 a.u.
Oligonucleotide = GAAAGTGTACAAGGCCACGTTCTGTCACCGTCATAGGTCTTGATTCGCTTGACGCTGCTG; result = 520 a.u.
Oligonucleotide = GAACATATTCATAGGCACATCATGAATTTACTGTAGGTCTTGATTCGCTTGACGCTGCTG; result = 503 a.u.

Other studies, line by line
Molecule = PhoQ, residues 284 288 289 292 302 303 AEGLLW; target = PhoP, residues 12 14 15 18 19 SEGLL (Escherichia coli, UniProt P23836); test = Sort-seq, refers to: YFP reporter; system = E. coli; conditions = PhoQ-PhoP variant library, added: 10 µM Mg2+; scale = baseline: high Mg2+ state, higher = stronger signaling; measurement = fold induction; result = 2.03

Some of these lines once more (set 3):
Oligonucleotide = GAATCCTTGTACCAGCACATGGCCGAGCTTGAATAGGTCTTGATTCGCTTGACGCTGCTG; result = 572 a.u.
Oligonucleotide = GAAAGTGTACAAGGCCACGTTCTGTCACCGTCATAGGTCTTGATTCGCTTGACGCTGCTG; result = 520 a.u.
Oligonucleotide = GAACATATTCATAGGCACATCATGAATTTACTGTAGGTCTTGATTCGCTTGACGCTGCTG; result = 503 a.u.
